Measured values of several laboratories.
Every numbered part comes from another study and shows a few of its results, in no order.
Chain of UniProt P09769 (whole entry, looked up): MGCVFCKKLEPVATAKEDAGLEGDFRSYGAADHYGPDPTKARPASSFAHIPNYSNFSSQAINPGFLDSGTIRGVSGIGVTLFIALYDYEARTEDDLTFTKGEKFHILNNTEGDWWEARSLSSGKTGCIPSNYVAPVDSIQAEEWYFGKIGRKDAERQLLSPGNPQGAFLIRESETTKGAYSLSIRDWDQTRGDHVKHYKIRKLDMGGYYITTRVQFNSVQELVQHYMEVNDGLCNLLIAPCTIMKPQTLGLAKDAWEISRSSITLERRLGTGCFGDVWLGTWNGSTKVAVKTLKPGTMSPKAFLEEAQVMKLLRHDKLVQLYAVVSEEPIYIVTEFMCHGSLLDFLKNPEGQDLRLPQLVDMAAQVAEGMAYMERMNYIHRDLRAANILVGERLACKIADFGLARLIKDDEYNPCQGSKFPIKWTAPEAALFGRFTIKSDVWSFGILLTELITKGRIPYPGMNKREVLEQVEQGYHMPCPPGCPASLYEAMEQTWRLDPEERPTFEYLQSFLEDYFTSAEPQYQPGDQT
Chain of UniProt P29597 (whole entry, looked up): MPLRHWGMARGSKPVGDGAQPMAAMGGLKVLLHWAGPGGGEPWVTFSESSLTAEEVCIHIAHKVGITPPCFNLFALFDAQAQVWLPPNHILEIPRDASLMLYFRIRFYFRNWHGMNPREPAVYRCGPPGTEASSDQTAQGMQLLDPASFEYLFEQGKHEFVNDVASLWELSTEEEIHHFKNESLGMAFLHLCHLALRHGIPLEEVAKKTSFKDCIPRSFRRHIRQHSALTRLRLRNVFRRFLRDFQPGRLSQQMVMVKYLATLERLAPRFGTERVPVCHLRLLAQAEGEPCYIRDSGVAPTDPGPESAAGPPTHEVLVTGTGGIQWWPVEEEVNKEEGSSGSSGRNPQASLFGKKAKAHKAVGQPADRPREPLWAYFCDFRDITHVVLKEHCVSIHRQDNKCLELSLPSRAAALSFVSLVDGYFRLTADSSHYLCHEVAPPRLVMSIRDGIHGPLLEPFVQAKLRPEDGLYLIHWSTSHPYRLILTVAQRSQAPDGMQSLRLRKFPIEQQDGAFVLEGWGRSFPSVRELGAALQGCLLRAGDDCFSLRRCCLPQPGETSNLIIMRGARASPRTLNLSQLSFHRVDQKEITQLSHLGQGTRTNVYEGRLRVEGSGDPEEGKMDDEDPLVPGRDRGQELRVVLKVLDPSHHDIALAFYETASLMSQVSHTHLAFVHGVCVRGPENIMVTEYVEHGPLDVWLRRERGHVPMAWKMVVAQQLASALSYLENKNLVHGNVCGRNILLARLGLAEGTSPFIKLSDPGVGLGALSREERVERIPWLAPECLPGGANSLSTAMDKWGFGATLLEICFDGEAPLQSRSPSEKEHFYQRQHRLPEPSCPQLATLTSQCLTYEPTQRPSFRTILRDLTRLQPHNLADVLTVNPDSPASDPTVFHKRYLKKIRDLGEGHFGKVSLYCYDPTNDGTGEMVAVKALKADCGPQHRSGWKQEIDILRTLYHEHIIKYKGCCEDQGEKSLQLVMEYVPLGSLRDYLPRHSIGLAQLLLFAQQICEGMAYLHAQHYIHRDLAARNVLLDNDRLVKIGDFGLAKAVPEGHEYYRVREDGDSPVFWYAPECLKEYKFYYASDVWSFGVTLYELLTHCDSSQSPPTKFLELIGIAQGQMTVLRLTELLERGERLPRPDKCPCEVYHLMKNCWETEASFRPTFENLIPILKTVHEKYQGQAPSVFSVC
Chain of UniProt O00444 (whole entry, looked up): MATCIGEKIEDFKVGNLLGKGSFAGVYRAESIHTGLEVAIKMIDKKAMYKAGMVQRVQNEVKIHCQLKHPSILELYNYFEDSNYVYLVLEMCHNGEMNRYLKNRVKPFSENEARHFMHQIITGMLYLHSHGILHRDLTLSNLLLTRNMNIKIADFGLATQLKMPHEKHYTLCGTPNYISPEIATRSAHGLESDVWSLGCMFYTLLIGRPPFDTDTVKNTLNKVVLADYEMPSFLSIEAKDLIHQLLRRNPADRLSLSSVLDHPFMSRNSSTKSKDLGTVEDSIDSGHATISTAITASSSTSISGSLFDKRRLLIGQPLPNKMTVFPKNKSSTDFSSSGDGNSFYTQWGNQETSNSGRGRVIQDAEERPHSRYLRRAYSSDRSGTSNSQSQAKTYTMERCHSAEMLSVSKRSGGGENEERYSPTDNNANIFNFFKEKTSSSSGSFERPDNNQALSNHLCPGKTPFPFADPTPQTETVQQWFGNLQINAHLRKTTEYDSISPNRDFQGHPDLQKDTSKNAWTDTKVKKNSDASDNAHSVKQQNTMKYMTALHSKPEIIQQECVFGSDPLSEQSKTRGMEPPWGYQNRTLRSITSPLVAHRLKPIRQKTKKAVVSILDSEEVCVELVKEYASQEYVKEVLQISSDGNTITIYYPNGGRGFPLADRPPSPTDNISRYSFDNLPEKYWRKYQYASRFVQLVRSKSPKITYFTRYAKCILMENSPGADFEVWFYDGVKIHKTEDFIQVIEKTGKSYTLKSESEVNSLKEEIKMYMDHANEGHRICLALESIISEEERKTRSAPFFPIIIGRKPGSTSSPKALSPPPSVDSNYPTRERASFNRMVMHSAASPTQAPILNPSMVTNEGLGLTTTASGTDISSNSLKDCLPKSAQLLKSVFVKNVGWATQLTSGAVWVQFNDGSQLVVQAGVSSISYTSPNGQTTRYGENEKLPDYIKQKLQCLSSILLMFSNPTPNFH
Chain of UniProt Q13555 (whole entry, looked up): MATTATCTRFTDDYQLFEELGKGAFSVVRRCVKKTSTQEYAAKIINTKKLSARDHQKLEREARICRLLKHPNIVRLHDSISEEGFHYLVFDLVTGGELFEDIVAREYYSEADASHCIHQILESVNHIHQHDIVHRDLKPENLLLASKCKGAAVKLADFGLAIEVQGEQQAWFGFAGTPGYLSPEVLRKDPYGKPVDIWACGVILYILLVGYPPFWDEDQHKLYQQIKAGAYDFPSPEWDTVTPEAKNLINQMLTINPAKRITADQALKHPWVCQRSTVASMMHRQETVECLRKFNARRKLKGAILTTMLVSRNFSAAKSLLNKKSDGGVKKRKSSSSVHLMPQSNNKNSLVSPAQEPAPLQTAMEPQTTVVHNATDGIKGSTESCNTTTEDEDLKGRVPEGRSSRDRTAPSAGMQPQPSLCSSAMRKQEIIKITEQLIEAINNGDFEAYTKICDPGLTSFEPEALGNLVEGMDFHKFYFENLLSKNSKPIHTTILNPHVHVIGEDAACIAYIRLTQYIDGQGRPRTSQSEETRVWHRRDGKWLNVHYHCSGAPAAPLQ
Chain of UniProt Q12852 (whole entry, looked up): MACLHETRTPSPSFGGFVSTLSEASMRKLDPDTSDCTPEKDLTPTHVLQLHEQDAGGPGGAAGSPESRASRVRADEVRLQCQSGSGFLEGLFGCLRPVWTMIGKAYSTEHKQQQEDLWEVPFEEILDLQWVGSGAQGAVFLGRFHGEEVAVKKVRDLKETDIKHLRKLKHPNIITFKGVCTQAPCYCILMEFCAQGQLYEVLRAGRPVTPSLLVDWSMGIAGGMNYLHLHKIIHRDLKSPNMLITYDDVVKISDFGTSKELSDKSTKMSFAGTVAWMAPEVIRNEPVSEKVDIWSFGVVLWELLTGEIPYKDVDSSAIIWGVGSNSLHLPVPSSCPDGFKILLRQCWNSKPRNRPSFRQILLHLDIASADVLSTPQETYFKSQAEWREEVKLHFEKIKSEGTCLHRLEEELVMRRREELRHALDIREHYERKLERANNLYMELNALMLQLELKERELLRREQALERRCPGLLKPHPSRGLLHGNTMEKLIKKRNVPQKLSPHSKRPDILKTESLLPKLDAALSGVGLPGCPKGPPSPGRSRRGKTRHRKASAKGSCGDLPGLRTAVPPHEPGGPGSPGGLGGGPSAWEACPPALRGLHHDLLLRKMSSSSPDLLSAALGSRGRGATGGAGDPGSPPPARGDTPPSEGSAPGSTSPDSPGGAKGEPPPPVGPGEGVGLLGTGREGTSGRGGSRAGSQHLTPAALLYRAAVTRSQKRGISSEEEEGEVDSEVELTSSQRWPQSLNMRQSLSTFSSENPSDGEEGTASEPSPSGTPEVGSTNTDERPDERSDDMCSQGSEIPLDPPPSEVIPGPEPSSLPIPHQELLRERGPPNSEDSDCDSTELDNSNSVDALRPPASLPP
Chain of UniProt Q9P289 (whole entry, looked up): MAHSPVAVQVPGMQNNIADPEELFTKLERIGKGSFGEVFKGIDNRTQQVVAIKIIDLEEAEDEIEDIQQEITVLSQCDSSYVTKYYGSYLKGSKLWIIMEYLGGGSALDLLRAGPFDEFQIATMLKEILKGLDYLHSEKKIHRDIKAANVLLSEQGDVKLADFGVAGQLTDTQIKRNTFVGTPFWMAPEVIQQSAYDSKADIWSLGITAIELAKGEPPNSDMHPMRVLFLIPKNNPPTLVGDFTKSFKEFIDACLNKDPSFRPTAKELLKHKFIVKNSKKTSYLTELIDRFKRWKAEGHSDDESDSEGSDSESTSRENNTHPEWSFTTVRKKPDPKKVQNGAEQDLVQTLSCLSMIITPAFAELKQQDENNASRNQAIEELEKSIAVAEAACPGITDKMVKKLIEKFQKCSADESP

Block 1 — observed: AlphaScreen signal; method: AlphaScreen counter screen; sample: His6 peptide without bromodomain; concentration: 50 µM; notes: assay interference check; quantity: inhibition
Compound = Cn1cccc1C=C(C#N)c1nc2ccccc2s1; result = 69.5%
Compound = O=C1Nc2ccc3ncsc3c2C1=CNc1ccc(S(=O)(=O)Nc2ccccn2)cc1; result = 17.9%
Compound = CNc1nc(-c2ccc3c(N)n[nH]c3c2)cc(N2C[C@@H](C(=O)NC3CCCCC3)CC[C@H]2C)n1; result = 59.1%
Compound = Cc1cnc(Nc2ccc(F)cc2Cl)nc1-c1c[nH]c(C(=O)N[C@H](CO)c2cccc(Cl)c2)c1; result = 66.1%
Compound = Nc1nc(Nc2ccc(F)cc2)sc1C(=O)c1ccccc1; result = 19.4%
Compound = Cc1nc(Nc2n[nH]c3c2CN(C(=O)N[C@H](CN(C)C)c2ccccc2)C3(C)C)c2sccc2n1; result = 18.6%
Compound = CC(C)c1cc(/C=C(\C#N)C(=O)NCCCc2ccccc2)cc(C(C)C)c1O; result = 19.9%
Compound = COc1cc2c(Oc3ccc(NC(=O)C4(C(=O)Nc5ccc(F)cc5)CC4)cc3F)ccnc2cc1OCCCN1CCOCC1; result = 49.4%
Compound = c1ccc(-c2cnc(Nc3ccc(OCCN4CCCC4)cc3)s2)cc1; result = 73.1%
Compound = CCOc1cc2ncc(C#N)c(Nc3ccc(OCc4ccccn4)c(Cl)c3)c2cc1NC(=O)/C=C/CN(C)C; result = 41.4%
Compound = O=C(Nc1cccc(Nc2nccc(Nc3cccc(C(F)(F)F)c3)n2)c1)C1CC1; result = 32.3%
Compound = N#Cc1c(NC(=O)c2cccc3ccccc23)sc2c1CCCC2; result = 25.2%

Block 2 — observed: cell-free assay; method: competition with immobilised ligand; concentration: 1 µM; quantity: remaining binding
Structure (SMILES): Cc1nc(C2CCN(C(=O)c3ccc(OC(F)(F)F)cc3N)CC2)c2ncc(N3CCN(C)CC3)cc2n1
target = MAP3K12 (Homo sapiens, UniProt Q12852); result = 100%
target = DYRK2 (Homo sapiens, UniProt Q92630); result = 100%
target = CSNK1G3 (Homo sapiens, UniProt Q9Y6M4); result = 100%
target = PLK4 (Homo sapiens, UniProt O00444); result = 77%
target = FLT3 (Homo sapiens, UniProt P36888, F691L/ITD); result = 84%
target = PRKCE (Homo sapiens, UniProt Q02156); result = 100%
target = FGR (Homo sapiens, UniProt P09769); result = 100%
target = PRKCI (Homo sapiens, UniProt P41743); result = 81%
target = ULK1 (Homo sapiens, UniProt O75385); result = 49%
target = PDGFRA (Homo sapiens, UniProt P16234); result = 100%
target = STK17A (Homo sapiens, UniProt Q9UEE5); result = 100%
target = FRK (Homo sapiens, UniProt P42685); result = 95%
target = eIF-2-alpha kinase GCN2, C-terminal kinase domain (EIF2AK4, Homo sapiens, UniProt Q9P2K8, S808G); result = 90%
target = NUAK1 (Homo sapiens, UniProt O60285); result = 95%
target = RIOK1 (Homo sapiens, UniProt Q9BRS2); result = 100%
target = SLK (Homo sapiens, UniProt Q9H2G2); result = 97%
target = CHEK2 (Homo sapiens, UniProt O96017); result = 100%
target = NTRK3 (Homo sapiens, UniProt Q16288); result = 97%

Block 3 — observed: enzyme activity; action: inhibitor; concentration: 0.5 µM; baseline: control; quantity: remaining activity
Compound: O=Nc1c(-c2c(O)[nH]c3ccccc23)[nH]c2ccccc12
target = STK26 (Homo sapiens, UniProt Q9P289); result = 75.3%
target = IRAK1 (Homo sapiens, UniProt P51617); result = 68.8%
target = EPHA8 (Homo sapiens, UniProt P29322); result = 91.1%
target = CAMK2G (Homo sapiens, UniProt Q13555); result = 69.8%
target = TYK2 (Homo sapiens, UniProt P29597); result = 24.3%

Block 4 — observed: enzyme activity; action: inhibitor; concentration: 10 µM; quantity: inhibition
Target: Calcium/calmodulin-dependent protein kinase type II subunit alpha (CAMK2A, Homo sapiens, UniProt Q9UQM7)
Chain of UniProt Q9UQM7 (whole entry, looked up): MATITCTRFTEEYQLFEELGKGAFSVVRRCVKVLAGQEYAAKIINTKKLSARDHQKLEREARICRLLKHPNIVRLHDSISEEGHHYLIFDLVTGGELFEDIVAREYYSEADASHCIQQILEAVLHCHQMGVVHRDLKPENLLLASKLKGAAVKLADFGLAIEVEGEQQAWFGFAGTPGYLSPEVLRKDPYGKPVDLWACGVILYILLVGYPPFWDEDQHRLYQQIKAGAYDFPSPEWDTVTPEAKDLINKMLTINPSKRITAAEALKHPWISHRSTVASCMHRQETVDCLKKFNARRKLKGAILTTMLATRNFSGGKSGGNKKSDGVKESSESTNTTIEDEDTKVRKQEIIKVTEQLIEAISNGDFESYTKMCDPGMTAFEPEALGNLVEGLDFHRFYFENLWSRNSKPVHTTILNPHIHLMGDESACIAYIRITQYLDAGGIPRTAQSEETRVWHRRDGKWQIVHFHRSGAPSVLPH
Structure (SMILES) = Nc1nc2c(ncn2COCCO)c(=O)[nH]1; result = -8%
Structure (SMILES) = CC1=C(C(=O)O)N2C(=O)[C@@H](NC(=O)[C@H](N)c3ccc(O)cc3)[C@H]2SC1; result = -10%
Structure (SMILES) = CC(C(=O)O)c1ccc2c(c1)Cc1cccnc1O2 (stereo not drawn); result = -13%
Structure (SMILES) = C=CCc1ccc(O)c(-c2cc(CC=C)ccc2O)c1; result = 0%
Structure (SMILES) = C/C=C(/C)C(=O)O[C@H]1c2cc(OC)c(OC)c(OC)c2-c2c(cc(OC)c(OC)c2OC)C[C@H](C)[C@]1(C)O; result = 9%
Structure (SMILES) = COc1cc(/C=C/C(=O)O[C@H]2[C@H](O)[C@@H](CO)O[C@@]2(CO)O[C@H]2O[C@H](CO)[C@@H](O)[C@H](O)[C@H]2O)ccc1O; result = 5%
Structure (SMILES) = O=c1cc(-c2ccc(O)cc2)oc2cc(O)c([C@@H]3O[C@H](CO)[C@@H](O)[C@H](O)[C@H]3O[C@@H]3O[C@H](CO)[C@@H](O)[C@H](O)[C@H]3O)c(O)c12; result = -1%
